Measurements from different studies.
A part holds a random share of what one study measured. Substitutions count along the parent as printed.

Set 1
Target: Histone acetyltransferase KAT6A, both winged helices, GST fusion (KAT6A, Homo sapiens, UniProt Q92794, residues 1-181)
Method: protein binding microarray
Molecule type: double-stranded DNA, one strand shown
Sample: in vitro
Concentration: not given
Setting: 8-mer, flanks averaged, mean of 2 arrays, mostly near background
Relative to: not given
Direction: higher = stronger binding
Target sequence (chain): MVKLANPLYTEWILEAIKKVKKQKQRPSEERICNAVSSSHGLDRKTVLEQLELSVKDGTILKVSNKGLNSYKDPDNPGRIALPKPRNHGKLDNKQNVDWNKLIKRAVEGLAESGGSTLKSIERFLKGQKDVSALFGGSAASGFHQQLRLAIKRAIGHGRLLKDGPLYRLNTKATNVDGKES
Oligonucleotide | E-score
ATACTTGC | 0.00285
TAGTCAAA | -0.184
AAAGGTGC | -0.149
TGAGAGCA | -0.217
AAATTTCT | -0.169
CTGCCCTA | -0.145
AAGTTTCC | -0.0682
GAGGCTCA | -0.0267

Set 2
Target: Centromere-binding protein 1, full length, His-tagged (CBF1, Saccharomyces cerevisiae, UniProt P17106, residues 1-351)
Sequence of UniProt P17106 (whole entry, looked up): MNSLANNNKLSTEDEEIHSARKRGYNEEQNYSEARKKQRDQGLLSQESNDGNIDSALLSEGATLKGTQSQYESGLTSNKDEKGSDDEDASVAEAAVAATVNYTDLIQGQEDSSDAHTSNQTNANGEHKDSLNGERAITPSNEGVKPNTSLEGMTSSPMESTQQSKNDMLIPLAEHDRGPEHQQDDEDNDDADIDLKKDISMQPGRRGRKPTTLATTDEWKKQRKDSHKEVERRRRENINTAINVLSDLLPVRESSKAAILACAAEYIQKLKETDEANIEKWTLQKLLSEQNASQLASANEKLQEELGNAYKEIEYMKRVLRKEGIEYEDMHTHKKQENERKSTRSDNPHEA
Method: competition protein-binding microarray
Molecule type: double-stranded DNA, one strand shown
Sample: in vitro
Concentration: 2 µM
Setting: whole 60-bp probe, lowest competitor level
With: Pho4 competitor, 0.05 µM
Direction: higher = stronger binding
All sequences stand within: … GTCTTGATTCGCTTGACGCTGCTG
Oligonucleotide | fluorescence intensity
CTTCTGTAAATTTGGGTGGTGGGTGGACGCGCCCCG | 74.2 a.u.
TGATCATATCAGCTTGTTCATTGCTCTTATTTTTCT | 79.4 a.u.
TATATAAGATAATTGCACATGCAAACAGTCAATCTT | 142 a.u.
AAAGCGGTAATTTGTCACCAAACTTCACATATCTAT | 85.3 a.u.
CATGTTCATACCCTTCACGTTTGTGGAGCAAAGGTT | 85.4 a.u.
CATACCCAACCTTGGGCCGTGGGTGAAGATATTTGT | 49.3 a.u.
CTCAGTACTGATTGACACATGATTATACTGCGAGAC | 240 a.u.
CTTGGTGAAAATGGTAACGTGACTCGGTGTTGTTTT | 1930 a.u.
CGTCCTAGTGATTGGTTCGTGGGTGCCATGAGGAAG | 75.4 a.u.

Set 3
Target: ABI1, truncated, D143A, DHFR fusion (Arabidopsis thaliana)
Method: DHFR PCA, deep sequencing
Sample: yeast
Setting: methotrexate growth selection, single substitutions
With: (+)-ABA 0.39 µM
Relative to: wild-type fitted maximum
Direction: higher = stronger binding
Parent: PYL1, truncated, DHFR fusion (Arabidopsis thaliana); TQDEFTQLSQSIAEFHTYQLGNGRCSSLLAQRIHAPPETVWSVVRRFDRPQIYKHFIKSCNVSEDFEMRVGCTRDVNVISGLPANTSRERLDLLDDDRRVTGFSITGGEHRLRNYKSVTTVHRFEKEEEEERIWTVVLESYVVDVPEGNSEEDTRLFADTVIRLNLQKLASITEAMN; partner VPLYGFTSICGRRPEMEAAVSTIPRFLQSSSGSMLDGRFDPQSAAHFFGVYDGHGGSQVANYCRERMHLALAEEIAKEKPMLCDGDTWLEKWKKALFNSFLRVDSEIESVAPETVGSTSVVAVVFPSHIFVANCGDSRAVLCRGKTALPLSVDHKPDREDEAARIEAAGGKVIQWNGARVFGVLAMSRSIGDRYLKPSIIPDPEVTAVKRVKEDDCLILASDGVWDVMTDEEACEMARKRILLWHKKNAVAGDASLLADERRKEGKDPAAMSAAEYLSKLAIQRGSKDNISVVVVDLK
Substitution | relative binding score [%]
L112S | -6.12
K168W | 35.7
I12F | 2.42
F103H | 0.917
G102E | 0.0865
G107M | -8.69
T39R | 39.2
V136T | 23.6

Mixed results
Substance | target | assay | test system | setting | how to read | quantity | value
PhoQ, residues 284 288 289 292 302 303 AGGLSV | PhoP, residues 12 14 15 18 19 LHHSG (Escherichia coli, UniProt P23836) | Sort-seq, item: YFP reporter | E. coli | PhoQ-PhoP variant library, with: 10 µM Mg2+ | relative to: high Mg2+ state, higher = stronger signaling | fold induction | 15.1

Excerpt of the above (set 1):
Oligonucleotide | E-score
TAGTCAAA | -0.184
